Measured values from different studies.
“And” joins repeats or separate records; there may be more than shown. ± gives the spread as reported.

Compound = CC(C)[C@H](NC(=O)[C@@H](NC(=O)[C@H](CCCNC(=N)N)NC(=O)[C@H](CCCNC(=N)N)NC(=O)[C@H](CCCNC(=N)N)NC(=O)[C@H](CCC(N)=O)NC(=O)[C@H](CCCNC(=N)N)NC(=O)[C@H](CCCNC(=N)N)NC(=O)[C@H](CCCCN)NC(=O)[C@H](CCCCN)NC(=O)[C@H](CCCNC(=N)N)NC(=O)CN)[C@@H](C)O)C(=O)N[C@H](C(=O)N[C@@H](CO)C(=O)N1CCC[C@H]1C(=O)O)[C@@H](C)O; test system = ICR mice, female, lung; setting = intranasal, 20 mg/kg daily, 4 weeks; endpoint = organ weight; result = 0.348 ± 0.023 g
Compound = CCCCCCCCCCCC(=O)N[C@@H](CCCNC(=N)N)C(=O)N[C@@H](Cc1c[nH]c2ccccc12)C(=O)N[C@@H](CCCCN)C(=O)N[C@H](C(=O)N[C@@H](Cc1ccccc1)C(=O)N[C@@H](CCCCN)C(=O)N[C@@H](CCCCN)C(=O)N[C@H](C(=O)N[C@@H](CCC(=O)O)C(=O)N[C@@H](CCCCN)C(=O)N[C@H](C(=O)NCC(=O)N[C@@H](CCC(N)=O)C(=O)N[C@@H](CC(N)=O)C(=O)N[C@H](C(=O)N[C@@H](CCCNC(=N)N)C(=O)N[C@@H](CC(=O)O)C(=O)NCC(=O)N[C@H](C(=O)N[C@H](C(=O)N[C@@H](CCCCN)C(=O)N[C@@H](C)C(=O)NCC(=O)N1CCC[C@H]1C(=O)N[C@@H](C)C(=O)N[C@H](C(=O)N[C@@H](C)C(=O)N[C@H](C(=O)N[C@H](C(=O)NCC(=O)N[C@@H](CCC(N)=O)C(=O)N[C@@H](C)C(=O)N[C@@H](C)C(=O)N[C@H](C(=O)N[C@H](C(N)=O)[C@@H](C)CC)[C@@H](C)O)C(C)C)C(C)C)C(C)C)C(C)C)[C@@H](C)CC)[C@@H](C)CC)C(C)C)[C@@H](C)CC)[C@@H](C)CC; test system = mouse erythrocytes; setting = 32 µM, 1 h, 37 °C; endpoint = hemolysis; result = < 8%
Compound = CN1Cc2cc(Cl)ccc2-n2c(nnc2C2CCN(c3cccc([18F])n3)CC2)C1; test system = C57BL/6 mouse male, urinary bladder; setting = intravenous, 3.7 MBq, 60 min; endpoint = tissue uptake; result = 17.4 ± 9.22 %ID/g
Compound = COc1ccc([C@@H]2CC(=O)c3c(O)cc(O[C@@H]4O[C@H](CO)[C@@H](O)[C@H](O)[C@H]4O[C@@H]4O[C@@H](C)[C@H](O)[C@@H](O)[C@H]4O)cc3O2)cc1O; test system = Sprague-Dawley rat, male, lean, faeces; setting = oral, 100 mg/kg, 12-24 h; endpoint = faecal excretion; result = 2670 ± 1060 ng
Compound = CC(=O)NCCCC[C@@H]1NC(=O)[C@H](Cc2c[nH]c3c(C)cccc23)NC(=O)[C@H]([C@@H](C)O)NC(=O)[C@H](CC(N)=O)NC(=O)[C@@H](NC(C)=O)C(C)(C)SSC(C)(C)[C@@H](C(=O)N[C@@H](Cc2ccc(OCCN)cc2)C(=O)N[C@@H](Cc2ccc3ccccc3c2)C(=O)NC2(C(=O)N[C@@H](CCC(=O)O)C(=O)N[C@@H](CC(N)=O)C(=O)N[C@@H](Cc3cccnc3)C(=O)N(C)CC(N)=O)CCOCC2)NC1=O; test system = cynomolgus monkey, blood; setting = 0.0013 µM, 2 h; endpoint = whole blood to plasma concentration ratio; result = 0.43 ± 0.01
Compound = CCCC[C@H]1C(=O)N(C)[C@@H](CCCC)C(=O)N[C@@H](CCCNC(=O)CN2CCN(CC(=O)O)CCN(CC(=O)O)CCN(CC(=O)O)CC2)C(=O)N[C@H](C(=O)NCC(N)=O)CSCC(=O)N[C@@H](Cc2ccc(O)cc2)C(=O)N(C)[C@@H](C)C(=O)N[C@@H](CC(N)=O)C(=O)N2CCC[C@H]2C(=O)N[C@@H](Cc2c[nH]cn2)C(=O)N[C@@H](CC(C)C)C(=O)N(C)CC(=O)N[C@@H](Cc2c[nH]c3ccccc23)C(=O)N[C@@H](CO)C(=O)N[C@@H](Cc2c[nH]c3ccccc23)C(=O)N1C [gallium-68 labelled]; test system = NOD/SCID mice, CHO-hPD-L1 xenograft, skin; setting = 60 min, atezolizumab 10 mg/kg pretreatment; endpoint = tissue uptake; result = 4.4 ± 0.54 %ID/g
Compound = N#[11C]c1ccc(-c2csc(NN=C3CCCC3)n2)cc1; assay = radio-HPLC; test system = C57BL/6 mouse, plasma; setting = intravenous, 37 MBq, 5 min; endpoint = unchanged compound; result = 28% and 27.5%
Compound = CSCC[C@H](NC(=O)CNC(=O)[C@H](CCCCN)NC(=O)[C@H](CC(C)C)NC(=O)[C@@H]1CCCN1C(=O)[C@H](CO)NC(=O)[C@H](Cc1c[nH]cn1)NC(=O)[C@H](Cc1c[nH]c2ccccc12)NC(=O)[C@H](CCCNC(=N)N)NC(=O)[C@H](CC(C)C)NC(=O)[C@H](CCCNC(=N)N)NC(=O)[C@H](Cc1c[nH]c2ccccc12)NC(=O)[C@H](CS)NC(=O)CCCCCNC(=O)CN1CCN(CC(=O)O)CCN(CC(=O)O)CCN(CC(=O)O)CC1)C(=O)O [copper-64 labelled]; assay = ex vivo biodistribution; test system = C57BL/6J mice bearing B16-F10 tumours, heart; setting = intravenous, 1.85 MBq, 18 h; endpoint = tissue uptake; result = 1.91 %ID/g
Compound = CN(C)C(=O)c1cncc(-c2cnc3[nH]cc(-c4cc(OS(=O)(=O)F)ccc4C#N)c3c2)c1; assay = HPLC; setting = 50 µM, 37 °C, no lysine, followed to 24 h; endpoint = hydrolytic half-life; result = > 24 h
Compound = C=Cc1c(C)c2cc3nc(c(CC(=O)[O-])c4[n-]c(cc5nc(cc1[n-]2)C(C)=C5CC)c(C)c4C(=O)[O-])C(CCC(=O)[O-])C3C.[Cu+2].[Na+].[Na+].[Na+] (stereo not drawn); test system = Wistar rat, female; setting = oral, 1000 mg/kg daily, 28 days; endpoint = haemoglobin; result = 14.6 ± 1.02 g/dL
Compound = N=C(N)NCCC[C@H](NC(=O)[C@H](CCCNC(=N)N)NC(=O)[C@H](CCCNC(=N)N)NC(=O)[C@H](CCC(N)=O)NC(=O)[C@H](CCCNC(=N)N)NC(=O)[C@H](CCCNC(=N)N)NC(=O)[C@H](CCCCN)NC(=O)[C@H](CCCCN)NC(=O)[C@H](CCCNC(=N)N)NC(=O)CNC(=O)[C@H](Cc1ccc(O)cc1)NC(=O)[C@H](Cc1ccccc1)NC(=O)[C@H](Cc1ccccc1)NC(=O)[C@H](Cc1ccccc1)NC(=O)Cc1ccc2ccccc2c1)C(=O)O; test system = C57BL/6 mice; setting = intraperitoneal, 20 mg/kg, 12 h; how to read = direction not given; endpoint = health score; result = 5
Compound = O=C1NC2(CC2)COc2ncc(F)cc2[C@H]2COCCN2c2ccn3ncc1c3n2; test system = Sprague-Dawley rat, male, spleen; setting = oral, 20 mg/kg/day, 4 weeks, end of treatment; endpoint = organ-to-body weight ratio; result = 0.399 ± 0.095%
Compound = CC[C@H](C)[C@H](NC(=O)[C@H](CCCCN)NC(=O)CNC(=O)[C@H](CC(C)C)NC(=O)[C@H](Cc1ccccc1)NC(=O)[C@H](CCCCN)NC(=O)[C@H](CO)NC(=O)[C@H](Cc1ccccc1)NC(=O)[C@H](Cc1c[nH]c2ccccc12)NC(=O)[C@H](CCC(N)=O)NC(=O)[C@@H](NC(=O)[C@H](Cc1ccccc1)NC(=O)CCCCCNC(=O)CN1CCN(CC(=O)O)CCN(CC(=O)O)CCN(CC(=O)O)CC1)C(C)C)C(=O)N[C@@H](CCC(=O)O)C(=O)N1CCC[C@H]1C(=O)N[C@@H](CC(=O)O)C(=O)N[C@H](C(=O)N[C@@H](CO)C(=O)N[C@@H](CCC(N)=O)C(=O)N[C@H](C(=O)N[C@@H](CCC(N)=O)C(=O)N[C@@H](CC(=O)O)C(=O)N1CCC[C@H]1C(=O)N[C@@H](CC(N)=O)C(=O)N[C@@H](CC(=O)O)C(=O)N[C@@H](CCC(N)=O)C(=O)N[C@@H](Cc1ccc(O)cc1)C(=O)N[C@@H](CCC(=O)O)C(=O)N1CCC[C@H]1C(=O)N[C@@H](Cc1ccccc1)C(=O)O)C(C)C)C(C)C [copper-64 labelled]; assay = dynamic PET; test system = mouse, CT26 tumour, untreated, tumour; setting = intravenous, 100 µCi/mouse, 1980 s; endpoint = SUVmean; result = 1.31 SUV
Compound = CCCCCCCCCCCCCCCC(=O)N[C@@H](CCC(=O)NCCOCCOCCC(=O)NCCOCCOCCC(=O)NCCCC[C@H](NC(=O)[C@H](CC(=O)O)NC(=O)[C@H](CC(C)C)NC(=O)[C@H](Cc1ccc(O)cc1)NC(=O)[C@H](CCCCN)NC(=O)[C@H](CO)NC(=O)[C@H](Cc1ccc(O)cc1)NC(=O)[C@H](CC(=O)O)NC(=O)[C@H](CO)NC(=O)[C@@H](NC(=O)[C@H](Cc1ccccc1)NC(=O)[C@@H](NC(=O)CNC(=O)[C@H](CCC(N)=O)NC(=O)[C@@H](CO)NC(=O)[C@@H](N)Cc1c[nH]cn1)[C@@H](C)O)[C@@H](C)O)C(=O)N[C@@H](CCCNC(=N)N)C(=O)N[C@@H](CCCNC(=N)N)C(=O)N[C@@H](C)C(=O)N[C@@H](CCC(N)=O)C(=O)N[C@@H](CC(=O)O)C(=O)N[C@@H](Cc1ccccc1)C(=O)N[C@H](C(=O)N[C@@H](CCC(N)=O)C(=O)N[C@@H](Cc1c[nH]c2ccccc12)C(=O)N[C@@H](CC(C)C)C(=O)N[C@@H](CC(C)C)C(=O)N[C@@H](CC(N)=O)C(=O)N[C@H](C(=O)NCC(=O)NCC(=O)N1CCC[C@H]1C(=O)N[C@@H](CO)C(=O)N[C@@H](CO)C(=O)NCC(=O)N[C@@H](C)C(=O)N1CCC[C@H]1C(=O)N1CCC[C@H]1C(=O)N1CCC[C@H]1C(=O)N[C@@H](CO)C(N)=O)[C@@H](C)O)C(C)C)C(=O)O; test system = rhesus monkey, male; setting = subcutaneous, 300 µg/kg once daily, 28 days; endpoint = creatinine; result = 45.4 ± 6.3 µmol/L
Compound = C=CC(=O)Nc1cccc(Cn2ncc3cnc(Nc4cnn(CCOC)c4)nc32)c1; test system = Sprague-Dawley rat, female; setting = oral, 180 mg/kg, day 28, 28-day subacute toxicity study; endpoint = RDW-SD; result = 34.5 ± 1.47%
Compound = C#Cc1c(F)ccc2cc(O)cc(-c3ncc4c(N5CC6CCC(C5)N6C(=O)OC(C)OC(=O)C(CCCC)CCCC)nc(OC[C@@]56CCCN5C[C@H](F)C6)nc4c3F)c12 (stereo partly drawn); assay = chemical stability; test system = simulated intestinal fluid; setting = 1 µM, 30 min; endpoint = compound remaining; result = 95.4%
Compound = CC(C)[C@@H]1NC(=O)CNC(=O)[C@H](CC(N)=O)NC(=O)[C@H](CCCNC(=N)N)NC(=O)[C@H](Cc2ccc(O)cc2)NC(=O)[C@H](C(C)C)NC(=O)[C@@H](NC(=O)[C@@H](NC(=O)[C@H](CC(N)=O)NC(=O)[C@H](Cc2c[nH]c3ccccc23)NC(=O)[C@H](C)NC(=O)[C@H](Cc2ccccc2)NC(=O)CNC(=O)[C@H](CCCCN)NC(=O)[C@H](Cc2ccccc2)NC(=O)[C@H](Cc2ccccc2)NC(=O)[C@H](CCCCN)NC(=O)OCC2c3ccccc3-c3ccccc32)C(C)C)CSSC[C@@H](C(=O)N[C@@H](Cc2c[nH]cn2)C(=O)N[C@@H](CCCNC(=N)N)C(=O)N[C@@H](CCCNC(=N)N)C(=O)N[C@@H](C)C(=O)N[C@@H](CC(N)=O)C(N)=O)NC(=O)[C@H](C(C)C)NC(=O)[C@H](CCCNC(=N)N)NC1=O; test system = ICR mouse, serum; setting = ip, 5 mg/kg, 3 d dosing, blood day 5; endpoint = blood urea nitrogen; result = 10.8 ± 0.96 mmol/L
Compound = CC(C)C[C@@H](NC(=O)[C@@H](CCCNC(=N)N)NC(=O)[C@@H](Cc1c[nH]cn1)NC(=O)[C@@H](Cc1c[nH]c2ccccc12)NC(=O)[C@@H](Cc1c[nH]cn1)NC(=O)[C@@H](Cc1ccccc1)NC(=O)[C@H](NC(=O)[C@@H](Cc1ccc(O)cc1)NC(=O)CNC(=O)CNC(=O)CCOCCOCCOCCNC(=O)CN1CCN(CC(=O)O)CCN(CC(=O)O)CC1)[C@H](C)O)C(=O)N[C@H](CC(N)=O)C(=O)N1CCC[C@@H]1C(=O)O [gallium-68 labelled]; test system = C57BL/6 mice, male; setting = intravenous, 1.85 MBq, 30 min; how to read = reference: tumour over brain; endpoint = tissue ratio; result = 3.22 ± 0.68
